Experimental data gathered from unrelated publications.
Each numbered part is a random draw from the data of one study; scales do not carry over between parts. pEC50: −log10 of the molar value.
UniProt Q8N568, sequence (whole entry, looked up): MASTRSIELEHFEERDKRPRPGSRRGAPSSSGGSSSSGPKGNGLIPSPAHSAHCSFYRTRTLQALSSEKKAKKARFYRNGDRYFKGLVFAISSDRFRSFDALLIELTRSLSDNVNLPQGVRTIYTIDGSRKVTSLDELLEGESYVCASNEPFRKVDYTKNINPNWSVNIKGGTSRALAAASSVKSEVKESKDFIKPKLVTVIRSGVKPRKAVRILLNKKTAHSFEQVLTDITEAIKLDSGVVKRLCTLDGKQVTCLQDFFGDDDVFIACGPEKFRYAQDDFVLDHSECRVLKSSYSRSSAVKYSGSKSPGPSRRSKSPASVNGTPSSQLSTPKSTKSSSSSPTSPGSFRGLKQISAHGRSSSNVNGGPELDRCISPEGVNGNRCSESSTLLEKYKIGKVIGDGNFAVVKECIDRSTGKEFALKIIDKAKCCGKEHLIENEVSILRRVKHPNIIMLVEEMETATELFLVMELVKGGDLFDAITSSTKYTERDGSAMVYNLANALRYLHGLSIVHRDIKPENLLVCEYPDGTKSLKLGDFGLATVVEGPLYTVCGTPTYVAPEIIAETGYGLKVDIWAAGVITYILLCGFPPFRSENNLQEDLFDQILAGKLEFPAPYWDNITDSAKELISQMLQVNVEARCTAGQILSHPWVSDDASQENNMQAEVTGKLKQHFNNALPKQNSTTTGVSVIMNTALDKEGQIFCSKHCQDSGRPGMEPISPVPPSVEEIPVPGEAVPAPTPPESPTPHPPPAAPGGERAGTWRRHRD
UniProt P37023, sequence (whole entry, looked up): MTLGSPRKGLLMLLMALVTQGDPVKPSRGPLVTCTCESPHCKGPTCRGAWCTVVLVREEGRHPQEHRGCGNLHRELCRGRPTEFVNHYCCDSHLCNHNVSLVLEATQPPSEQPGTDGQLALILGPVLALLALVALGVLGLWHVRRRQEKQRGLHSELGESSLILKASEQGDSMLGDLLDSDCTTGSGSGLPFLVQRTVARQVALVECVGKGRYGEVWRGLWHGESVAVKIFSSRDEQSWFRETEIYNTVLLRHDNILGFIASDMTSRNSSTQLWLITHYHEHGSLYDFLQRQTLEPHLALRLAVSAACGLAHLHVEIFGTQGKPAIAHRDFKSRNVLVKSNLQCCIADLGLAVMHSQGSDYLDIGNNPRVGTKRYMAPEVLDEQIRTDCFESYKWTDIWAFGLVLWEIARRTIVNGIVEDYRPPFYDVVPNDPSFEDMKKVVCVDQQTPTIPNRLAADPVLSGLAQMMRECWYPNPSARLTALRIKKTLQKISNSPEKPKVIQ
UniProt Q13163, sequence (whole entry, looked up): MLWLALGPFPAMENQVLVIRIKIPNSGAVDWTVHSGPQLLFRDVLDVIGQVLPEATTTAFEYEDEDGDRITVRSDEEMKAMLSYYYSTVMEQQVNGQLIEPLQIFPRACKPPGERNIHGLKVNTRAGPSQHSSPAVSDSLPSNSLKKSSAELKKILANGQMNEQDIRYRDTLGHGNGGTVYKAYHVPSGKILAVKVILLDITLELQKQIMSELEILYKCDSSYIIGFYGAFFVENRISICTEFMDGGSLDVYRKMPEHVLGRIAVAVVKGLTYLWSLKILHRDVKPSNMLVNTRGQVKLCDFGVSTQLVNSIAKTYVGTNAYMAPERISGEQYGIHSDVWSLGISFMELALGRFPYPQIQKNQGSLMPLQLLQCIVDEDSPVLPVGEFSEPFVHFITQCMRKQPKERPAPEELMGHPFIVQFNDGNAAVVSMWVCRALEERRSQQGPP
UniProt Q04771, sequence (whole entry, looked up): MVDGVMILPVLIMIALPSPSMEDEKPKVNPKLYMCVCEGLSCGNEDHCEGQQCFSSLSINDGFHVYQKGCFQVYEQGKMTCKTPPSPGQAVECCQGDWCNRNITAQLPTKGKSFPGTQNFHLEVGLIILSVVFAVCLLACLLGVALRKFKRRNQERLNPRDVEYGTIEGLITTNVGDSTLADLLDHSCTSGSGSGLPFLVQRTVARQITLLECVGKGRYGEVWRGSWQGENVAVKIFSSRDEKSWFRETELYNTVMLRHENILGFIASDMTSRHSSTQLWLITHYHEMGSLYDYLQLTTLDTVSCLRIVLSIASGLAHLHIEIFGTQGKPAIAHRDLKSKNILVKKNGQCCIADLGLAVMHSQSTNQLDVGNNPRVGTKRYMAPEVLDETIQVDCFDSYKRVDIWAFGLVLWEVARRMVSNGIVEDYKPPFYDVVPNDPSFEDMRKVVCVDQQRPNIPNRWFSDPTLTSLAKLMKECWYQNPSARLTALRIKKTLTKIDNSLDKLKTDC
UniProt Q99755, sequence (whole entry, looked up): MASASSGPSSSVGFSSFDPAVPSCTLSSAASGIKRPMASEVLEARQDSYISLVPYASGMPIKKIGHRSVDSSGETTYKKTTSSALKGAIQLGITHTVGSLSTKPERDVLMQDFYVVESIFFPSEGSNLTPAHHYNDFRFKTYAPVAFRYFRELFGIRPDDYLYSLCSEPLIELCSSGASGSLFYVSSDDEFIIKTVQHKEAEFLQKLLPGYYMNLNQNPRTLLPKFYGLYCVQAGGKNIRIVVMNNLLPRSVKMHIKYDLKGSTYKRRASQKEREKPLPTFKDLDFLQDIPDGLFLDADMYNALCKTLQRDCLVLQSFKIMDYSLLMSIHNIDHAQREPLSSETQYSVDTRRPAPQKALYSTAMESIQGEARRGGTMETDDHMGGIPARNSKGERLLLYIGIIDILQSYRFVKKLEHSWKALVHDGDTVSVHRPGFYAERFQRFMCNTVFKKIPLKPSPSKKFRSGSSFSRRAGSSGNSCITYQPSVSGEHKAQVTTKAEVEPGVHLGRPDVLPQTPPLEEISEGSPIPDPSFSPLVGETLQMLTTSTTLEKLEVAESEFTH
UniProt P51817, sequence (whole entry, looked up): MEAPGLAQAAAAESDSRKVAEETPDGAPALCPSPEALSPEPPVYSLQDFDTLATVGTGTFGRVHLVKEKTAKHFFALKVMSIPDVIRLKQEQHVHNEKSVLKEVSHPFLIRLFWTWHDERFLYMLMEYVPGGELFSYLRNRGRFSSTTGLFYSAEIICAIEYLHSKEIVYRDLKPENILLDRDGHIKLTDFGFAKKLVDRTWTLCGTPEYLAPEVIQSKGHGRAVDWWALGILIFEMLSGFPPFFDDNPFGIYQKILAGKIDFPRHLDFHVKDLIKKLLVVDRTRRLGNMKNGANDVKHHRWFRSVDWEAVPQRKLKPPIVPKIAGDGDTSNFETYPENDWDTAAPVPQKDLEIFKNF
UniProt Q9Y2H1, sequence (whole entry, looked up): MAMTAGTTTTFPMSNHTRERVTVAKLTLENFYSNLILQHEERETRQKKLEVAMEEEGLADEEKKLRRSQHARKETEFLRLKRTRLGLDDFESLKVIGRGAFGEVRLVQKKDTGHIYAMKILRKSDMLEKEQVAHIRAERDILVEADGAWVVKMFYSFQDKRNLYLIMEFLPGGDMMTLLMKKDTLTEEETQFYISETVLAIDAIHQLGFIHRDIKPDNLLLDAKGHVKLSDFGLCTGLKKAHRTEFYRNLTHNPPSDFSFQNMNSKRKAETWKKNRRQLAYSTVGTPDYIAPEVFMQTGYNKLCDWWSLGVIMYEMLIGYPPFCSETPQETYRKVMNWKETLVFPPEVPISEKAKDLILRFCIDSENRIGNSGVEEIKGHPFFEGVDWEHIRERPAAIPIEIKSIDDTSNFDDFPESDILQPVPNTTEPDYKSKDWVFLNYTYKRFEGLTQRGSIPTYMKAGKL
UniProt P00519, sequence (whole entry, unmodified, looked up): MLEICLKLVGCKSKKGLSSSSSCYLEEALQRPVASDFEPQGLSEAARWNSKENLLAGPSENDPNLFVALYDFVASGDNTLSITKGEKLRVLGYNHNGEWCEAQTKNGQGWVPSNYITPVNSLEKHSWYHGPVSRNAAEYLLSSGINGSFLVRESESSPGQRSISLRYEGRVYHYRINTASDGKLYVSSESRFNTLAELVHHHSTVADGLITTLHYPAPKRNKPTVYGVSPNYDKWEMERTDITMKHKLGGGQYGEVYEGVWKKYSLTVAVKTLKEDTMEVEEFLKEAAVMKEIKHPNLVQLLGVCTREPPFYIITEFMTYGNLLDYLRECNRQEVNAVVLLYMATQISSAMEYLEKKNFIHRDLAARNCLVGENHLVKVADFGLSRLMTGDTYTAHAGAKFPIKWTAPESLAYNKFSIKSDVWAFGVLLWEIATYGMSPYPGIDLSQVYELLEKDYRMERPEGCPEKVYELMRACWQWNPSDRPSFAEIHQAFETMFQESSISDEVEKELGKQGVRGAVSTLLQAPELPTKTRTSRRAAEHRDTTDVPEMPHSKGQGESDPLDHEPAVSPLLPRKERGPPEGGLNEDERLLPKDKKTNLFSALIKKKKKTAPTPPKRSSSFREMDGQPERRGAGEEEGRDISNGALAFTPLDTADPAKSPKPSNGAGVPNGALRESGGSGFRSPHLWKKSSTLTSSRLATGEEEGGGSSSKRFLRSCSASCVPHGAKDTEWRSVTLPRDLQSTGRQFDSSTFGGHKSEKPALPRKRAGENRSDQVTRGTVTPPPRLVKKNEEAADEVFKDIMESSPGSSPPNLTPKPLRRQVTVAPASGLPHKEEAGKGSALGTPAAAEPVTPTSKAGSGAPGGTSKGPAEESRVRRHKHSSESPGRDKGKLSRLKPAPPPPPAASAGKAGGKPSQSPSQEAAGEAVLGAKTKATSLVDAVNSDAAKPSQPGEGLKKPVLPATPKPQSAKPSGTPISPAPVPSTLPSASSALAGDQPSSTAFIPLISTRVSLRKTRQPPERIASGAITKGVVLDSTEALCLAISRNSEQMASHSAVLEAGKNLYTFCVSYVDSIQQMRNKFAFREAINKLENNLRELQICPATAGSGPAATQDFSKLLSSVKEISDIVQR

Study 1
SMILES: Nc1c(C(=O)NCc2ccc(C(=O)NCCCC3CCCCC3)cc2)cnn1-c1ccccc1
Technique: competition with immobilised ligand
target	test	setting	remaining binding [%]
PRKX (Homo sapiens, UniProt P51817)	cell-free assay	0.1 µM	87
GSK3B (Homo sapiens, UniProt P49841)	cell-free assay	0.1 µM	100
STK38L (Homo sapiens, UniProt Q9Y2H1)	binding	1 µM	44
HIPK1 (Homo sapiens, UniProt Q86Z02)	cell-free assay	0.1 µM	100
DCLK2 (Homo sapiens, UniProt Q8N568)	cell-free assay	0.1 µM	100
ACVRL1 (Homo sapiens, UniProt P37023)	cell-free assay	0.1 µM	100
TAOK1 (Homo sapiens, UniProt Q7L7X3)	cell-free assay	0.1 µM	91
Ribosomal protein S6 kinase alpha-6, C-terminal kinase domain (RPS6KA6, Homo sapiens, UniProt Q9UK32)	cell-free assay	0.1 µM	61
Tyrosine-protein kinase ABL1, non-phosphorylated (ABL1, Homo sapiens, UniProt P00519, F317I)	binding	0.1 µM	92
MAP2K5 (Homo sapiens, UniProt Q13163)	cell-free assay	0.1 µM	100
ACVR1B (Homo sapiens, UniProt P36896)	cell-free assay	0.1 µM	100
ACVR1 (Homo sapiens, UniProt Q04771)	cell-free assay	0.1 µM	100
CDK7 (Homo sapiens, UniProt P50613)	cell-free assay	0.1 µM	100
PIK3CA (Homo sapiens, UniProt P42336, I800L)	cell-free assay	0.1 µM	96
PIP5K1A (Homo sapiens, UniProt Q99755)	cell-free assay	0.1 µM	100
PIP4K2B (Homo sapiens, UniProt P78356)	cell-free assay	0.1 µM	100

Study 2
Host: mouse
Sample: microsomes or S9
Tested at: 2 µM
Time: 0.5 h
SMILES	remaining compound
O=C(C1CCCC1)N1CCc2nc3cc(C4CCCN(C(=O)C5CCCC5)C4)nn3c(O)c2C1 (stereo not shown)	6.46%
Cc1noc(C23CC(CN2C(=O)Nc2cc(C)c4cn[nH]c4c2)C3)n1	52.3%
CCCc1nnsc1C(=O)NC1CC(=O)N(C2CC2)C1 (stereo not shown)	48.7%
CC(C)C(=O)NC[C@@H]1C[C@H](F)CN1C(=O)CS(C)(=O)=O	48.8%
O=C(O)c1cc(-c2ccccc2)nn1-c1ncccc1-c1ccccc1	91%

Study 3
Cell line: mouse MPNST tumor cells
Technique: high-content immunofluorescence imaging
Measured: nuclear SOX9
Tested at: 10 µM
Time: 12 h
Notes: mean of 2 replicates
Relative to: DMSO control
Reading: higher = more nuclear SOX9
SMILES	nuclear SOX9 intensity
Cc1cc(C)c(-n2ccn3nc(-c4cccnc4)cc23)cc1NC(=O)c1cc(C#N)cc(S(F)(F)(F)(F)F)c1	186 % of DMSO
CC(C)(CO)C(O)C(=O)NCCCO (stereo not shown)	101 % of DMSO
Cc1ncc(C[n+]2csc(CCO)c2C)c(N)n1	91.1 % of DMSO
CN(Cc1cnc2nc(N)nc(N)c2n1)c1ccc(C(=O)N[C@@H](CCC(=O)O)C(=O)O)cc1	93.9 % of DMSO
CC(=O)Oc1cc(C(C)C)c(OCCN(C)C)cc1C	115 % of DMSO
CC(CNS(=O)(=O)C(C)C)c1ccc(-c2ccc(C#N)cc2)cc1 (stereo not shown)	78.7 % of DMSO

Study 4
Target: panel of 300 human kinases
Tested at: 0.5 µM
Reading: higher = more selective
Compound	Gini score
COc1ccc(-c2cnc3c(-c4ccsc4)cnn3c2)cc1	0.56
COc1ccc(Cl)cc1NC(=O)Nc1cc(C)nc2ccccc12	0.67
c1ccc2c(-c3ccncc3)c[nH]c2c1	0.71
CN1CCN(c2ccc3nc(-c4c(N)c5c(F)cccc5[nH]c4=O)[nH]c3c2)CC1	0.61
O=c1cc(N2CCOCC2)oc2c1ccc1ccccc12	0.73
O=C(c1cc2cc(O)ccc2[nH]1)c1cc2cc(O)ccc2[nH]1	0.62

Single results of other studies
SMILES	target	test	system	quantity	result
NC1(c2ccc(-c3nc4ccn5c(=O)[nH]nc5c4cc3-c3ccccc3)cc2)CCC1	Bone morphogenetic protein receptor type-2 (BMPR2, Homo sapiens, UniProt Q13873, R491Q)	kinase-HSP90-CDC37 interaction, LUMIER	human cells	pEC50	< 5.00

Some of these lines once more (study 2):
SMILES	remaining compound
Cc1noc(C23CC(CN2C(=O)Nc2cc(C)c4cn[nH]c4c2)C3)n1	52.3%
CCCc1nnsc1C(=O)NC1CC(=O)N(C2CC2)C1 (stereo not shown)	48.7%
CC(C)C(=O)NC[C@@H]1C[C@H](F)CN1C(=O)CS(C)(=O)=O	48.8%
